Published values of several laboratories.
Each numbered part is a random draw from the data of one study; scales do not carry over between parts. Changes are numbered by the printed parent chain.

Set 1
Target: RING finger protein unkempt homolog, zinc fingers 1-6, SBP tag (UNK, Homo sapiens, UniProt Q9C0B0, residues 30-357)
Sequence of UniProt Q9C0B0 (30-357, looked up): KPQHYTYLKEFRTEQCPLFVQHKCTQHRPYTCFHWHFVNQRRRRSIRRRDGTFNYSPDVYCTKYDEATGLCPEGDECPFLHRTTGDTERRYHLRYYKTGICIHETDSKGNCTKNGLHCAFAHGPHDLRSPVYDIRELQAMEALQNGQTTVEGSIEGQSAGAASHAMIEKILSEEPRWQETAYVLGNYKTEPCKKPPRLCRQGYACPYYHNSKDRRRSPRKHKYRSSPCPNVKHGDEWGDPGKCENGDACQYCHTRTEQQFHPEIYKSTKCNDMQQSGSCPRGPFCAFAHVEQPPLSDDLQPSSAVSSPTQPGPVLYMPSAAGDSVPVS
Technique: RNA Bind-n-Seq
Molecule type: RNA
Matrix: in vitro
Tested at: 100 nM
Notes: RNA with constant flanks, vertebrate orthologous sites, ends assumed
Baseline: input RNA pool
Direction: higher = stronger binding
Quantity: bound/input enrichment
Shared flanks, not repeated: GGGAGUUCUACAGUCCGACGAUC … CAACAGAGGAUUGAGCAUCA
CAGCUAAAGGAGUUAGCAUCUUUAUUUUUGUAUCAAAGAUAAAGGUUAUUUUGAAAUUAUUAGGAUUUUUACACAAGUCUUCGAAACAAAUUGUUUGCUCCUGAGGACCUCCCCGCCCCA: 0.933 ratio
AUCGUGUUUGCUUUUUACCGCCUCAAUGAGGUCAAGUCUCCCUUGGCAUUUGGUUGGUACUAGAGCCAGUCAUACCUAAUGUGUCUUUCCACUUUUCAUUUCUUUCACUCAUAGUCAUCC: 0.873 ratio
ACAGGGAGAAGAGAUCACAAACUCAAGAAAAACUAUUAAAGAGUUCUAAUAGUUCAAAGCUAAGAAAGAGUAGGAUAAUUUUACAAAUGAGUGGUGGAAAAGAAAAGAACAGAAAAAGGC: 0.865 ratio
CAAUUCAAUGGUUGAGGGUUCAGAACUGAAAAAGGUUCGCUCCAACUCUAGGAUUUACCAUAGGUAUUUUUUACUAGACGCUGACAUGCAAAGCCUGAGGUGGGAGCCGUCCAAGAAGGA: 0.6 ratio
AGGGACGUUUUGAUGUGAAAAUUGAAGUUAAGAGCUGAUCACAAGCACAAAUCUUUCCCACUAGCCAUUUAAAAAAUUUAAAAAGAUACAAAAACAAAAACCUACUUGUCUUGAACAAAC: 3.24 ratio
AAUUUUUUAAAGUUUUUUUAAUUUAAUUUUUCCUUUGGGGGUAAAGUUUGCUCUACCAAAUAGUGAUCGUAAACAAAUUGAUCUGUUUUGGAUGUUGCUAUAGUGACAUGCAGUUAUAUA: 0.862 ratio
CAUUGAAUACAGGGGGAGAUACUGAAUAUUAACAUUGUCUUUUAUGUUUUGCACCCUAAUAUCUAUUCUUUUUAAAUUUUCAGACUUCACUGAUCUUUGAAUUGAUCCAGGUUACCGGAA: 0.889 ratio
AACUCUUACAGUCUUAGAUGUUAUUAAAAAAUAUAAAUAUAUCUGAAUUGUAAGAGUUGUUAGCACAGGUGUUUUGUUUUUGUGGUUUUUUUUUUUUUGAAGCACUUGUUUUUGGGUACA: 0.655 ratio
GUACUACAAAAAAAAAUCAUCCUAGUUUUAAAGCUAACUACGGUGAUAACUAGUCUGUGCUAGUAGAAUCAUUUAUUAUUACUUUUAAAAUUAUCUGCUCUGUCUGAUACCUGCAACCAC: 1.8 ratio

Set 2
Target: Interferon regulatory factor 7, full length, phosphomimetic (IRF7, Homo sapiens, UniProt Q92985, residues 1-503, S471D/S472D/S475D/S476D/S477D/S483D/S484D/S487D)
Technique: protein-binding microarray
Molecule type: double-stranded DNA, one strand shown
Matrix: in vitro
Tested at: 2200 nM top
Notes: 60-bp whole probe
With: salmon DNA 0.4 mg/ml
Baseline: random background probes
Direction: higher = stronger binding
Quantity: fitted relative affinity
Shared flanks, not repeated: GCCTAGCAC … GTCTTGATTCGCTTGACGCTGCTG
Construct (chain): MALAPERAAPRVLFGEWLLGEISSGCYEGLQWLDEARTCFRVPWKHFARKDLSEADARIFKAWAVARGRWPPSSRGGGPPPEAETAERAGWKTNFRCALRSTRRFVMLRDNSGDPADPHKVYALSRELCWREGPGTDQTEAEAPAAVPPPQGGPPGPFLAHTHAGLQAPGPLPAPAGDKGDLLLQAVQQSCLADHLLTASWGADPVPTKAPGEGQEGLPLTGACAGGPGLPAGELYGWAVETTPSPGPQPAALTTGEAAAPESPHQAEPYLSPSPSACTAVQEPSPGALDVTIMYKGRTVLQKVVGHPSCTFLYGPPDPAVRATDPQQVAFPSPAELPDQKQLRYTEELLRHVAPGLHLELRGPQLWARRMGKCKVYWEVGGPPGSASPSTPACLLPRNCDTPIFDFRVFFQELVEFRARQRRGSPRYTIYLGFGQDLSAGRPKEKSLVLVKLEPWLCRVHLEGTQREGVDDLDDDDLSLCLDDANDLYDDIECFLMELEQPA
TTAGAGATCGGGTTTCGATTAGTGCTA: 2.11 z-score
GACGGTTTCGGGACTGGCGACGTGCTA: 3.67 z-score
TTAGAACTGAGGTTTCGATTAGTGCTA: 2.56 z-score
GACGATTACGGGTATCGAGACGTGCTA: 0.00376 z-score
TTAGGTTTCGGGTATCTGTTAGTGCTA: 5.65 z-score
TTAGAACTGACACTGGATTAGTGCTAG: -0.358 z-score
TACTTTCTACTTCTCTTTTTGTGCTAG: 8.71 z-score
ATTCATATATATATGAAAAAGTGCTAG: 0.151 z-score
TTCACTCTCTGCTTGTATCTGTGCTAG: 2.23 z-score
GACGGACTGGGTATCAGGACGTGCTAG: -0.734 z-score
CACGGACTGGGGTTTCGGGACGTGCTA: 0.0741 z-score

Set 3
Target: CCNA2, cyclin fold, Cln2 fusion (human)
Technique: yeast growth competition, sequencing
Matrix: yeast
Notes: strong parent motif
Baseline: not given
Direction: higher = stronger binding
Quantity: normalised enrichment score
Starting sequence: CDKN1B docking peptide (human); PSACRNLFGPVDH; partner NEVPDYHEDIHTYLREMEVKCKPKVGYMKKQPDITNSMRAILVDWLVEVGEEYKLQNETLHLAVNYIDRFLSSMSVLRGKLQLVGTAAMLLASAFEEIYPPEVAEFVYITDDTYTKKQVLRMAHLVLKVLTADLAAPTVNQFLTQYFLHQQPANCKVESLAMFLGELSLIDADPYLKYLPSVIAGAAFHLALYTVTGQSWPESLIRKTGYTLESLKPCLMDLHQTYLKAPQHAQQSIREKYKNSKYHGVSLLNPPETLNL
C4K: 4.95
F8T: 0.448
D12W: 3.94
R5P: -0.624
L7A: 0.334
C4D: -0.115
N6W: 1.31
L7Y: 0.248
F8E: -0.365

Further values, each from its own experiment
PhoQ, residues 284 288 289 292 302 303 TVTVVA — fold induction (PhoP, residues 12 14 15 18 19 STWGI (Escherichia coli, UniProt P23836); Sort-seq, refers to: YFP reporter; E. coli; PhoQ-PhoP variant library, with: 10 µM Mg2+; baseline: high Mg2+ state, higher = stronger signaling): 6.4

A few entries again (set 2):
ATTCATATATATATGAAAAAGTGCTAG: 0.151 z-score
TTAGAACTGACACTGGATTAGTGCTAG: -0.358 z-score
TTCACTCTCTGCTTGTATCTGTGCTAG: 2.23 z-score
GACGGACTGGGTATCAGGACGTGCTAG: -0.734 z-score
